Assay results gathered from unrelated publications.
Each numbered part is a random draw from the data of one study; scales do not carry over between parts.

Study 1 — method: RNA Bind-n-Seq; form: RNA; matrix: in vitro; tested at: 365 nM; baseline: no-protein control; reading: higher = stronger binding; measurement: RBNS enrichment (R)
Target: RNA binding protein fox-1 homolog 2, RRM domain, GST-SBP tag (RBFOX2, Homo sapiens, UniProt O43251-10, residues 100-194)
Notes: natural RNA segment, single round, ends assumed
All sequences stand within: GGGAGUUCUACAGUCCGACGAUC … UGGAAUUCUCGGGUGCCAA
Target sequence (chain): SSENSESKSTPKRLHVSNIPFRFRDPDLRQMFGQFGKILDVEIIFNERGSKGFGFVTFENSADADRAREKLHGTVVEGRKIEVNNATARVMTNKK
ACCCCUACACACCGUCCGUUCACCCCCGUCUCUUCCUUCUGCUUUUCGGUUUUUGGAAAGGGAUCCAUCUCCAGGCAGCCCACCCUGGUGGGGCUUGUUUCCUGAAACCA: 0.431
CUCUUUAAAGGUGUAACAUCUUAAAUUUGGUGAUGAAUAGUGACAACCAAAAGACUAGAUUGUGCCUAAGCACUCCUUCUGGAACAACCGAAUGAUCAGCUGCAUAGCAA: 0.338
ACCUCCAUGUUGUGAAGGCAUCUGUUCAGUGAAGCACUACGAAAAUUUGAAACCAAGGGACAAGACAACCUGCAGCUGACGCUCUGACAUUUCAUGACAGUUUCCUCUUU: 0.445
CUCCGCAAGCCUCCUGCAGCGCCCGCCUGCCAAUGUGAGGCUGGCACCAGGCUGCAGCCUCCCCAAUCCCAGCCCACUUUGCUGUGUCUCUGGCGGGCUGUCCUCCUUGG: 0.329
AAAUACAAACCAACAGAAACUUGUUAUGCACUCAUCAAAAUGUACUAAUGGGUACUCUGAACUCAUUAACAUUGACAUCUGCAACAGGAGGCAACAGGGAAAAAAUCUCA: 0.34
AGAUGGUCAAGUUUGUAAAAUAUUUGUUUGUGCUUUUUCCCCCUCCUUACCUGACCCCCUACGAGUUUACAGGUCUGUGGCAAUACUCUUAACCAUAAGAAUUGAAAUGG: 1.42
AUUGGGAUUUCCCUCCAAACCAAACUGUCCUUUAAGGGGCAGCCUCCUCUUUUACUAACUCCACCCUUUCUCAUCUCUGGGACCCAGCAGGGACCUGGAGAGGCCAACAG: 0.335
CCAGUGGCGUGGCCUCUGCCUCUAAGCGCUGAGCAUUGGGCCCCUUCCCCACCAGACCUUUGUAGCUCCUCCAGCCUCUGCAGAGACUCCCUUCACCUCGCACUUACUGC: 0.729
UUUCAUUUGACUUACAACACACUUCUCUAACAUCUAGCCCUUUUAAAUUUUUAAUUAAUUUCAAAGCUUCCUCUGGCCAGGUAGACUUUUGUAUACAGACCAGGUGAGAG: 0.289
CAAAAUGUGAGUCAGUGUGAUGAAGCAGUGGCUCUGUCAUCUCGGCCUUUAUCCAAUAACAAACCAGCAUCUCUUAAAGGCGCUUUUGGCCUAGACACCCCUGAAGUUUG: 0.455
CAAAGGCCCCGCAUCCCCAUCCUAGGAGUGCCCUAGAGACAAUUAAAUGUCCAUUCCUCUGGUGCUGCUGCUUGUGGUGUCCGGGUCCCUGCCUGGCAGAGGCAGAUAGU: 1
UAAUACACGGUGAUUUUAAAACAACCAUAAAAUUGAUUCAGAGUCCACUGACCCUUACAGAUGUAGGUAUACCCUUACUGGAGAGGGAACUCUGAUGAGGAGAUGCUGGU: 0.471

Study 2 — method: RNA Bind-n-Seq; form: RNA; matrix: in vitro; tested at: 200 nM; notes: whole 134-nt RNA, ends assumed; with: 150 mM KCl; baseline: input library; reading: higher = stronger binding; measurement: log2 enrichment
Target: Fragile X messenger ribonucleoprotein 1, C-terminal low-complexity region (Fmr1, Mus musculus, UniProt P35922)
All sequences stand within: GGGAGUUCUACAGUCCGACGAUC … UGGAAUUCUCGGGUGUCAAGG
UCCUGUGCUACACAUCGUAUGUACCGAAUCGGAAAAAAGGGGAAAAAAGGGAAAAAAGGGAAAGUAUUAUGUUACGCCGUUCGGAUCUGC: -0.292
UAACUUUAGAGGAGGAUCUGAUGGAUAUGGCAGUGGACGUGGAUUUGGGGAUGGCUAGAAUGGGUAUGGAGGAGGACCUGGAGGUGGCAA: 0.261
GCAGGAAGUAAAAACAAAUGGAAAUGCUUCGGAUAGUGGCAGGGGUGGGAAAUGCUAAGGAAAGGGUGGGAUGGGAGUGGGUAAAGAGUU: 0.379
UUCAGUUAUUCAAGCGGAGAAAUGUUGCUACAGCAGAAGAAGAAACAGAAGAAGAAGUUAUGUCAGAUGGAGGCUUUCAUGAGGCUCAGA: -1.81
AAGUCCUGUGCUACACAUCGUAUGUACCGAAUCGGGUUUGGGUUUGGGUUUUUGGGAAAGUAUUAUGUUACGCCGUUCGGAUCUGCACUU: 0.706
UUGUGAGCUGCAAGCUAGGCUGCAGGCCCAGGAAGAACAGCAUCAGGAAGUCCAGAAGGCAAAAGAAGCAGACAUAGAGAAGCUGAACCA: -1.25
AAGUCCUGUGCUACACAUCGUAUGUACCGAAUCGGGGUUUUGGUUUUGGUUUUGGGAAAGUAUUAUGUUACGCCGUUCGGAUCUGCACUU: -0.607
AAGUCCUGUGCUACACAUCGUAUGUACCGAAUCGGGUUUUUUUGGGAAAGGGAGGGAAAGUAUUAUGUUACGCCGUUCGGAUCUGCACUU: 0.747
GCAGGAAGUAAAAACAAAUGGAAAUGCUUCGGAUAGUGGCAGGGGUGGGGGUUGAAAAGGAAAGGGUGGGAUGGGAGUGGGUAAAGAGUU: 0.403
CACAGACAACAAAAACCCACACAGACACAGAGGGAAGGGGUUGGGAUGGGGACAGGGUGCACAGCAGGGCGGGGUAGGACCCCAGCCCCU: 1.42
CCUGUGCUACACAUCGUAUGUACCGAAUCGGGGUUUUUUGGGUUUUUUGGGGUUUUUUGGGAAAGUAUUAUGUUACGCCGUUCGGAUCUG: -0.398
AAGUCCUGUGCUACACAUCGUAUGUACCGAAUCGGGUUUGGGAAAAAAAGGGUGGGAAAGUAUUAUGUUACGCCGUUCGGAUCUGCACUU: 0.861
CUGUGCUACACAUCGUAUGUACCGAAUCGGGAAAAAAAGGAAAAAAAGGGAAAAAAAGGGGAAAGUAUUAUGUUACGCCGUUCGGAUCUG: -0.884
UGUACUGAUGACAGCUAAUCUCUGAAUCUUUUUCCUCCAGGAUGUUCCUUCAGGAGGAAGCAGCACUAAAAGCACUCUGAGUCAAGAUGA: -1.02

Study 3 — method: protein-binding microarray; form: double-stranded DNA, one strand shown; matrix: in vitro; tested at: 0.8 µM; notes: whole 60-bp probe, no competitor; reading: higher = stronger binding; measurement: fluorescence intensity; all sequences stand within: … GTCTTGATTCGCTTGACGCTGCTG
Target: Centromere-binding protein 1, full length, N-terminal tag (CBF1, Saccharomyces cerevisiae, UniProt P17106, residues 1-351)
UniProt P17106, sequence (whole entry, looked up): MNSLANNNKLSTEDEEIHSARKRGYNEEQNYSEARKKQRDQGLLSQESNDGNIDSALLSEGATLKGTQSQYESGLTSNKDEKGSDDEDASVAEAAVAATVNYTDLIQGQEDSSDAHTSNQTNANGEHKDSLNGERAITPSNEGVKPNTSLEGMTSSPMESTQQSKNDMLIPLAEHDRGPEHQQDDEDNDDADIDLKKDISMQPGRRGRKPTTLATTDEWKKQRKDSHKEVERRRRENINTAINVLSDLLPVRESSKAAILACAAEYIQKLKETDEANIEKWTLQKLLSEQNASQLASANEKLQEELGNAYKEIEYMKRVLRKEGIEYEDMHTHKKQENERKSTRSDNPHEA
CTAGCCGTTTGCAGGCTCATGATGATAAATCTCTTC: 579 a.u.
TGTACGAAGCTATGCCACGAGGATATAGTAGTTAGG: 532 a.u.
CTACACAATCCACGGCGCACGCAAGGGACAGCATTC: 515 a.u.
CTAAGCGGGTCACGTGGTCGCGCAAATGATGATTTC: 29100 a.u.
CTATCAACTAGTAGTCACATTAGTAGTGTATTATTC: 543 a.u.
CTAACACTTCTGAGAAGCCACGTGTAGAGGGGTTTC: 2090 a.u.
CTATTTGATGGTATACGCCTGATGTTTTTTTCGTTC: 573 a.u.
CCTAACTACTATAGACACGTTCCATAGCTTCGTACA: 558 a.u.
GAAATCGCGCGTTCACACGTCACACCGCAGCATTAG: 676 a.u.
CTATTTGTAGTATTCTTCGTGATCTTTTTCTCTTTC: 603 a.u.
CCTAACTACTATAGTCAGCGGAGATAGCTTCGTACA: 490 a.u.
TGTACGAAGCTATGCGGTGTGATTATAGTAGTTAGG: 535 a.u.
TGTACGAAGCTATGCCACGAATATATAGTAGTTAGG: 537 a.u.
CTAATACCAGGATCTGACGTCATGGCCCAATACTTC: 502 a.u.
GAATACGTACAACGTGATATTTTCCGATTTTCCTAG: 1280 a.u.
GAATTCCATAAAGAGCACGTGCGGGCGCGCTGGTAG: 9750 a.u.
GAATTCTCTTTTCATCATGATTTGAGTGTACTATAG: 502 a.u.
GAAAATAAAAAAAGCCACGTTAGATATAGTATTTAG: 534 a.u.

Study 4 — method: universal PBM; form: double-stranded DNA, one strand shown; matrix: in vitro; tested at: not given; reading: higher = stronger binding; measurement: E-score
Target: Sal-like protein 4, full length isoform B (SALL4, Homo sapiens, UniProt Q9UJQ4-2, residues 1-616)
Notes: 8-mer, flanks averaged, mean of replicates
CCGTCCGC: -0.346
AGGTTGCC: -0.218
ATATACCG: 0.163
GAAAGAAC: -0.00436
CCCCTTCA: -0.137
ATGTGGAC: 0.0557
AGCCGTAA: 0.0808
CTTACAAA: 0.0657
AGATTCCA: 0.0486
TCAATTAA: 0.182
AAAACATT: 0.321
CCAGACAA: -0.042
ACCTCTGC: -0.12
GTATAAGA: 0.238
GAAAGATC: -0.135
CATCGCAA: -0.012
AACCCGCC: -0.193
ATGCGGAG: -0.219
ATCCAGAT: 0.0144
CTCTACAC: -0.13
AGGTGGCA: -0.106
TCGGTGCA: -0.171

A few entries again (study 4):
CATCGCAA: -0.012
ACCTCTGC: -0.12
GAAAGAAC: -0.00436
AGCCGTAA: 0.0808
AGGTTGCC: -0.218
AAAACATT: 0.321
GAAAGATC: -0.135
ATGTGGAC: 0.0557
AGGTGGCA: -0.106
GTATAAGA: 0.238
